{"data": "Published values collected from several papers", "note": "Lines come from different studies, so protocols differ."}
{"SMILES": "FC(F)(F)c1ccc(CNc2ccc(Cc3c[nH]c4ncc(Cl)cc34)cn2)cn1", "assay": "item: Anaemia", "test system": "patients with advanced solid tumours", "setting": "oral, dose not given, grade 1 and 2, possibly related to drug", "adverse event incidence [%]": 19}
{"SMILES": "CC[C@H](C)CCCCC(=O)N[C@@H](CCN)C(=O)N[C@H](C(=O)N[C@@H](CCN)C(=O)N[C@H]1CCNC(=O)[C@H]([C@@H](C)O)NC(=O)[C@H](CCN)NC(=O)[C@H](CCN)NC(=O)[C@H](CC(C)C)NC(=O)[C@@H](Cc2ccccc2)NC(=O)[C@H](CCN)NC1=O)[C@@H](C)O", "assay": "item: infections and infestations", "test system": "mild renal insufficiency", "setting": "intravenous, 0.75 mg/kg", "adverse event incidence [%]": 0}
{"SMILES": "CC(C)n1c(Nc2cccnc2)nc2cnc(Nc3ccc(N4CCN(C)CC4)cc3)nc21", "assay": "item: Dizziness", "test system": "healthy male subjects", "setting": "oral, 150 mg, with: rifampin", "adverse event incidence [%]": 0}
{"SMILES": "CC(=O)O[C@H]1C(=O)[C@@]2(C)[C@H]([C@H](OC(=O)c3ccccc3)[C@]3(O)C[C@H](OC(=O)[C@H](O)[C@@H](NC(=O)c4ccccc4)c4ccccc4)C(C)=C1C3(C)C)[C@]1(OC(C)=O)CO[C@@H]1C[C@@H]2O", "assay": "item: Rash", "test system": "patients with advanced solid tumours", "setting": "intravenous, dose not given, all grades, possibly related to drug", "adverse event incidence [%]": 17}
{"SMILES": "CNC(=O)c1ccc(-c2cnc3ncc(Cc4ccc5ncccc5c4)n3n2)cc1F", "assay": "phase 1 clinical trial, item: peripheral edema", "test system": "HCC expansion cohort", "setting": "oral, 600 mg twice daily, grade 3 or 4", "adverse event incidence [%]": 0}
{"SMILES": "Cc1c(C(=O)O)ccc2c3n(nc12)[C@@H]1[C@H](C3)N(CC2CC2)[C@@]2(C(=O)Nc3cc(Cl)ccc32)[C@H]1c1cccc(Cl)c1F", "assay": "phase Ia trial, item: Pyrexia", "test system": "cancer patients", "setting": "oral, dose not given, all patients grade ≥3", "adverse event incidence [%]": 0}
{"SMILES": "NCCONC(=O)[C@@H]1CC[C@@H]2CN1C(=O)N2OS(=O)(=O)O", "assay": "item: leading to dose reduction", "test system": "healthy Chinese men", "setting": "intravenous, 1 g, treatment-emergent", "adverse event incidence [%]": 0}
{"SMILES": "Cc1ccc(Sc2ccccc2N2CCNCC2)c(C)c1", "assay": "TEAE blood in urine", "test system": "healthy adult men", "setting": "oral, 20 mg single dose, 10 days", "adverse event incidence [%]": 0}
{"SMILES": "O=C1CCc2ccc(OCCCCN3CCN(c4cccc(Cl)c4Cl)CC3)cc2N1", "assay": "item: Akathisia", "test system": "patients, CYP2D6 normal metabolizers", "setting": "dose not given, long-acting oral or depot", "adverse event incidence [%]": 1.8}
{"SMILES": "CC[C@H](C)[C@H](NC(=O)[C@H](Cc1ccccc1)NC(=O)[C@H](CCC(=O)O)NC(=O)[C@H](CCCCNC(=O)COCCOCCNC(=O)COCCOCCNC(=O)CC[C@H](NC(=O)CCCCCCCCCCCCCCCCC(=O)O)C(=O)O)NC(=O)[C@H](C)NC(=O)[C@H](C)NC(=O)[C@H](CCC(N)=O)NC(=O)CNC(=O)[C@H](CCC(=O)O)NC(=O)[C@H](CC(C)C)NC(=O)[C@H](Cc1ccc(O)cc1)NC(=O)[C@H](CO)NC(=O)[C@H](CO)NC(=O)[C@@H](NC(=O)[C@H](CC(=O)O)NC(=O)[C@H](CO)NC(=O)[C@@H](NC(=O)[C@H](Cc1ccccc1)NC(=O)[C@@H](NC(=O)CNC(=O)[C@H](CCC(=O)O)NC(=O)C(C)(C)NC(=O)[C@@H](N)Cc1cnc[nH]1)[C@@H](C)O)[C@@H](C)O)C(C)C)C(=O)N[C@@H](C)C(=O)N[C@@H](Cc1c[nH]c2ccccc12)C(=O)N[C@@H](CC(C)C)C(=O)N[C@H](C(=O)N[C@@H](CCCNC(=N)N)C(=O)NCC(=O)N[C@@H](CCCNC(=N)N)C(=O)NCC(=O)O)C(C)C", "assay": "item: Fatigue", "test system": "type 2 diabetes patients", "setting": "dose not given", "scale": "baseline: subjects", "adverse event incidence [%]": 0}
